Results gathered from unrelated publications.
Lines come from different studies, so protocols differ. Numbers after ± are the reported error. In brackets after ≈: the same amount, converted by molar mass.
Sequence of UniProt P49773 (whole entry, looked up): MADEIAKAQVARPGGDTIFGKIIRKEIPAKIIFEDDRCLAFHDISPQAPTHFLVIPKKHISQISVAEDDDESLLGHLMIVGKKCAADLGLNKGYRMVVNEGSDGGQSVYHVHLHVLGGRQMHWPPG
Sequence of UniProt Q9UBN7 (whole entry, looked up): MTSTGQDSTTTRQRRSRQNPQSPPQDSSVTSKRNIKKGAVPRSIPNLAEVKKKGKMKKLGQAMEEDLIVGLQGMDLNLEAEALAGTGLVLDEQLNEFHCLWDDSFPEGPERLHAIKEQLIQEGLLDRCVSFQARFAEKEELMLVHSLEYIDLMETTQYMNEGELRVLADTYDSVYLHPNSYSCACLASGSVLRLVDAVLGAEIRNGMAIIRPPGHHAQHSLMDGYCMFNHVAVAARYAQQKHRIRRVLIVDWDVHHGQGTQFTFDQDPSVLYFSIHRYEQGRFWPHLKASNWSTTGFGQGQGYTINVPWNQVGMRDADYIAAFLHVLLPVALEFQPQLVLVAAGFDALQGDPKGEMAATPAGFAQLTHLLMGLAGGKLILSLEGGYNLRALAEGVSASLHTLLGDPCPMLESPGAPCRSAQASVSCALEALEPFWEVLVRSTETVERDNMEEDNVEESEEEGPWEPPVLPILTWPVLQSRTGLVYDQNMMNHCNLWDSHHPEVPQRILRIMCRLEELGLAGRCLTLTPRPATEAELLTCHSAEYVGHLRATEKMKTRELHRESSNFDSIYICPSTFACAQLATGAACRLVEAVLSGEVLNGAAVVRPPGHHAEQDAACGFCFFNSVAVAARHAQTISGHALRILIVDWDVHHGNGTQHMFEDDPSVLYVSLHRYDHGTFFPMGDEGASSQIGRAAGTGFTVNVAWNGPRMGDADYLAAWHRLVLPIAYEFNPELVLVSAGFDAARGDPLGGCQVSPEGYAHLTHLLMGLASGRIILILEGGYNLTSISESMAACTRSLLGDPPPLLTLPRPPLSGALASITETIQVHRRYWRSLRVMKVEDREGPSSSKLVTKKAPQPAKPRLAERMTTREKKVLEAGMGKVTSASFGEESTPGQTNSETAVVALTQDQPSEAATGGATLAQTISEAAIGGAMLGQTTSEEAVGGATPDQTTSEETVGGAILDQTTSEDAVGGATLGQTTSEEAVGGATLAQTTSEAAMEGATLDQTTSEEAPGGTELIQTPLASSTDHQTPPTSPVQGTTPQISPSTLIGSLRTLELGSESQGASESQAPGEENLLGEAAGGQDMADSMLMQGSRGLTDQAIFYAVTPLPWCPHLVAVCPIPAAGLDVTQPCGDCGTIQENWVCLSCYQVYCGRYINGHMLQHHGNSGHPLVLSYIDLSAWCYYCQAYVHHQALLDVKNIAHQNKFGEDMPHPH
Sequence of UniProt Q8TD19 (whole entry, looked up): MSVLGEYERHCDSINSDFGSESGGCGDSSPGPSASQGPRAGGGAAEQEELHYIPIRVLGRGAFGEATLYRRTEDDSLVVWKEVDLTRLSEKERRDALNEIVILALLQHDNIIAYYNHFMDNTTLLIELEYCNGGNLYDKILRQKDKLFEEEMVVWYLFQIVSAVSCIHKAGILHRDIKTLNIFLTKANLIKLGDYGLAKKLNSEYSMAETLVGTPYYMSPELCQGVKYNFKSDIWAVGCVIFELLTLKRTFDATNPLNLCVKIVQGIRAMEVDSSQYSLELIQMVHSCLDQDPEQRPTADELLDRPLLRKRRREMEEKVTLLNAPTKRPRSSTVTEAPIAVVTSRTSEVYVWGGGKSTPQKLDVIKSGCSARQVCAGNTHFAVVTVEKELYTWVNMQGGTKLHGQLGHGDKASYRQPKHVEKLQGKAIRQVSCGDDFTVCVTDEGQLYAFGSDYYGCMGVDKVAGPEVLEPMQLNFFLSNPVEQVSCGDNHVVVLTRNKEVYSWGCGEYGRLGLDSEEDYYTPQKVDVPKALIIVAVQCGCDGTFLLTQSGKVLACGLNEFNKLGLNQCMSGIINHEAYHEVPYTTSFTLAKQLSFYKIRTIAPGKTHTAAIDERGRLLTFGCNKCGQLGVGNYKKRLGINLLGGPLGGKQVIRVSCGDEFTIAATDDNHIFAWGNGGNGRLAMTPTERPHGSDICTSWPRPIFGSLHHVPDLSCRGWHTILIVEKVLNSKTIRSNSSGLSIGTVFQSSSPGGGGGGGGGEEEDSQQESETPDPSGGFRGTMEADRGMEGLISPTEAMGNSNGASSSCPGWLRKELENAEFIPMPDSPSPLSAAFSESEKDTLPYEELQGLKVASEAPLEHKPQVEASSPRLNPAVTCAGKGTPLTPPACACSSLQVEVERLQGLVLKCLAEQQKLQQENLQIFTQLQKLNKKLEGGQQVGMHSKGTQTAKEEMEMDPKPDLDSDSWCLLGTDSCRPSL

| SMILES | target or system | assay | system | setting | how to read | quantity | result |
| --- | --- | --- | --- | --- | --- | --- | --- |
| c1ccc(COc2ccc(Nc3ccc4ncc(OCC5CCNCC5)nc4c3)cc2)cc1 | Kasumi-1 | cell growth, XTT |  | 7 days |  | EC50 | 3.6 ± 0.45 µM |
| C[C@]1(c2nc3c(C(N)=O)cccc3[nH]2)CCCN1 | CAPAN-1 (BRCA2-deficient) | cell proliferation, CellTiter-Glo |  | 168 h |  | EC50 | 9.4 µM |
| C[C@H](Nc1ccc2c(c1)OCCn1cc(N3C(=O)OC[C@H]3C(F)F)nc1-2)C(N)=O | HuH-28 | cell growth, CellTiter-Glo |  | 120 h |  | EC50 | 34 µM |
| CCn1cc(-c2cc(Cn3ccoc3=N)cc3c2CCN([C@@H](C)c2cc(OC)ccn2)C3=O)c(C(F)(F)F)n1 | SW1271 | cell growth, inhibitor |  | 120 h |  | EC50 | > 30 µM |
| Cc1ncc([N+](=O)[O-])n1CCO | Escherichia coli expressing NfsB_Ec nitroreductase | growth inhibition, substrate, OD600 |  | 4 h |  | EC50 | 341 µM |
| CN[C@H](CC(C)C)C(=O)N[C@H]1C(=O)N[C@@H](CC(N)=O)C(=O)N[C@H]2C(=O)N[C@H]3C(=O)N[C@H](C(=O)N[C@H](C(=O)O)c4cc(O)cc(O)c4-c4cc3ccc4O)[C@H](O)c3ccc(c(Cl)c3)Oc3cc2cc(c3O[C@@H]2O[C@H](CO)[C@@H](O)[C@H](O)[C@H]2O[C@H]2C[C@](C)(N)[C@H](O)[C@H](C)O2)Oc2ccc(cc2Cl)[C@H]1O | Streptococcus pyogenes |  | 10 isolates | serum 50% |  | MIC50 | 0.5 µg/mL (≈ 0.345 µM) |
| OC(CCN1CCCCC1)(c1ccccc1)C1CC2C=CC1C2 (stereo not drawn) |  | resting-state EEG | healthy elderly humans | oral, 2 mg, eyes closed, LS mean | reference: baseline | change in EEG Alpha2-power Pz-O2 | 20.1% |
| O=C1N=C(N2CCCCC2)S/C1=C\c1ccc(F)cc1O | NG108-15 | intracellular chloride reduction, Clomeleon fluorescence |  | 5 h |  | EC50 | 2.99 µM |
| CCn1cc(-c2cc(Cn3ccnc3)cc3c2CCN([C@H](c2cc(OC)ccn2)C2CC2)C3=O)c(C(F)(F)F)n1 | Lu-99 | cell growth, inhibitor |  | 120 h |  | EC50 | 1.08 µM |
| CCOc1ccccc1C1CC(c2ccccc2)Nc2nc(N)nn21 (stereo not drawn) | MEF with TRE-FLAG-LMNB1 | LMNB1 reduction, high-content screening |  |  |  | EC50 | 162 µM |
| O=C(COP(=O)(O)O)[C@@H](O)[C@H](O)[C@H](O)COP(=O)(O)O | Adenosine 5'-monophosphoramidase HINT1 (HINT1, Homo sapiens, UniProt P49773) | thermal proteome profiling | HepG2 cell lysate | concentration not given, 57 over 37 °C, mean | reference: compound over control | thermal stability ratio | 0.723 |
| CC(C)[C@H](NC(=O)[C@H](Cc1ccc(O)cc1)NC(=O)[C@H](Cc1ccc(O)cc1)NC(=O)[C@@H]1CCCN1C(=O)[C@H](CCC(=O)O)NC(=O)[C@H](CCC(=O)O)NC(=O)[C@H](Cc1c[nH]c2ccccc12)NC(=O)[C@@H]1CCCN1C(=O)[C@@H](NC(=O)[C@H](CCC(N)=O)NC(=O)c1ccc2c(c1)C(=O)OC21c2ccc(O)cc2Oc2cc(O)ccc21)C(C)C)C(=O)N[C@H](C(=O)N[C@@H](CCCCN)C(=O)N[C@@H](CCCCN)C(=O)N[C@@H](CO)C(=O)N[C@@H](CO)C(=O)NCC(=O)NCC(N)=O)C(C)C |  |  | human, plasma | intravenous infusion, 200 mg, 0.5 h |  | plasma concentration | 8760 ng/mL |
| O=C1N=C(N2CCOCC2)S/C1=C\c1ccccc1O | NG108-15 | intracellular chloride reduction, Clomeleon fluorescence |  | 5 h |  | EC50 | 3.6 µM |
| CC1CC(c2ccccc2)n2nc(N)nc2N1 (stereo not drawn) | MEF with TRE-FLAG-LMNB1 | LMNB1 reduction, high-content screening |  |  |  | EC50 | > 250 µM |
| COc1cnc2cccc(N3CCc4c(cc(Cn5ccnc5C)cc4-c4cn(C)nc4C(F)(F)F)C3=O)c2c1 | RERF-LC-AI | cell growth, inhibitor |  | 120 h |  | EC50 | > 30 µM |
| CC[C@@H]1[C@H](F)C(=O)N[C@@H]1COc1nccc2cc(C(N)=O)c(OC)cc12 | Serine/threonine-protein kinase Nek9 (NEK9, Homo sapiens, UniProt Q8TD19) | ATP-site probe binding, ActivX profiling | THP-1 cell lysate | 0.2 mM, Lys2 site |  | inhibition | 8.3% |
| c1cc(-c2cc3ncc(OCC4CCNCC4)nc3cc2-c2cccc(N3CCCCC3)c2)cc(N2CCCCC2)c1 | Kasumi-1 | cell growth, XTT |  | 7 days |  | EC50 | 0.8 ± 0.18 µM |

| SMILES | target or system | assay | system | setting | how to read | quantity | result |
| --- | --- | --- | --- | --- | --- | --- | --- |
| Nc1nc2n(n1)C(c1ccccc1)CC(c1ccccc1)N2 (stereo not drawn) | MEF with TRE-FLAG-LMNB1 | LMNB1 reduction, high-content screening |  |  |  | EC50 | > 200 µM |
| C[C@]12CCCN1CC1=NNC(=O)c3cc(F)cc4[nH]c2c1c34 | WiDr colorectal cancer cells | cell viability |  | concentration not given, added: with temozolomide |  | EC50 | > 3 µM |
| Cn1cc(-c2ccc(-c3cncc(Cl)c3N3CCC4(CCNC4=O)CC3)cc2)cn1 | COLO 205 | gene expression, microarray, item: CCR7 mRNA |  | concentration not given, 2 h | reference: untreated cells | log2 fold change | -2 |
| c1coc(-c2n[nH]cc2-c2ccnc3ccccc23)c1 | RIO2 (Candida albicans) | kinase binding, MIB/MS competition | Candida albicans lysate | 1 µM | reference: DMSO | log2 fold change | -0.22 |
| NC(=O)c1cnc2[nH]ccc2c1N[C@@H]1[C@@H]2CC3C[C@H]1C[C@@](O)(C3)C2 |  | flow cytometry | Caucasian healthy men, blood | oral, 20 mg single dose, 24 h | reference: baseline | total memory T-cell change | -1.03% |
| O=C(O)CCc1nccs1 | Protein deacetylase HDAC6, ZnF-UBD domain (HDAC6, Homo sapiens, UniProt Q9UBN7) |  |  |  |  | Kd | > 1000 µM |
| C[C@H]1CNCCN1c1nccc(-c2noc3c2CCC[C@@]32CCCc3sc(N)c(C#N)c32)n1 | Ba/F3, IL3-dependent | cell proliferation |  | 72 h, added: IL3 |  | EC50 | 3.44 µM |
| O=C1N=C(N2CCCCC2)S/C1=C\c1cc(F)ccc1O | NG108-15 | intracellular chloride reduction, Clomeleon fluorescence |  | 5 h |  | EC50 | 4.3 µM |
| COc1cccc(C2CC(c3ccccc3OC)n3nc(N)nc3N2)c1 (stereo not drawn) | MEF with TRE-FLAG-LMNB1 | LMNB1 reduction, high-content screening |  |  |  | EC50 | > 250 µM |
| Fc1ccc(Oc2ccc(Nc3ccc4ncc(OCC5CCNCC5)nc4c3)cc2)cc1 | Kasumi-1 | cell growth, XTT |  | 7 days |  | EC50 | 0.92 ± 0.01 µM |
| CC(C)C[C@H](NC(=O)C[C@H](O)[C@H](CC(C)C)NC(=O)[C@H](Cc1c[nH]cn1)NC(=O)CNC(=O)[C@@H](NC(=O)[C@H](C)NC(=O)[C@H](Cc1c[nH]c2ccccc12)NC(=O)[C@H](CCC(N)=O)NC(=O)[C@@H](Cc1ccccc1)NC(=O)COCCOCCNC(=O)CCC(C(=O)O)N1CCN(CC(=O)O)CCN(CC(=O)O)CCN(CC(=O)O)CC1)C(C)C)C(N)=O (stereo partly drawn) [lutetium-177 labelled] |  |  | BALB/c nu/nu mice, pancreas | intravenous, 500 pmol, 1 h, added: PA 300 µg |  | tissue uptake | 3.2 ± 0.7 %ID/g |
| O=C1N=C(N2CCCC2)S/C1=C\c1ccccc1O | NG108-15 | intracellular chloride reduction, Clomeleon fluorescence |  | 5 h |  | EC50 | 2.8 µM |
| CCOc1ccc(N([C@@H](C)C(=O)Nc2ccc(Br)c(C)c2)S(C)(=O)=O)cc1 | MEF with TRE-FLAG-LMNB1 | LMNB1 reduction, high-content screening |  |  |  | EC50 | > 250 µM |
| Oc1ccccc1-c1n[nH]cc1-c1ccnc2ccccc12 | RIO2 (Candida albicans) | kinase binding, MIB/MS competition | Candida albicans lysate | 1 µM | reference: DMSO | log2 fold change | -0.02 |
| O=C1N=C(N2CCCCN2)S/C1=C\c1cc(F)ccc1O | NG108-15 | intracellular chloride reduction, Clomeleon fluorescence |  | 5 h |  | EC50 | 0.318 µM |
| C[C@]12CC[C@@H]3c4ccc(O)cc4CC[C@H]3[C@@H]1CC[C@@H]2O | MCF7 3xERE-luc, steroid-deprived | ERE luciferase reporter, agonist |  |  |  | EC50 | 0.0002 µM |

For quick reference, copied from above:
| SMILES | target or system | assay | system | setting | how to read | quantity | result |
| --- | --- | --- | --- | --- | --- | --- | --- |
| CC1CC(c2ccccc2)n2nc(N)nc2N1 (stereo not drawn) | MEF with TRE-FLAG-LMNB1 | LMNB1 reduction, high-content screening |  |  |  | EC50 | > 250 µM |
| O=C1N=C(N2CCCCN2)S/C1=C\c1cc(F)ccc1O | NG108-15 | intracellular chloride reduction, Clomeleon fluorescence |  | 5 h |  | EC50 | 0.318 µM |
| C[C@H](Nc1ccc2c(c1)OCCn1cc(N3C(=O)OC[C@H]3C(F)F)nc1-2)C(N)=O | HuH-28 | cell growth, CellTiter-Glo |  | 120 h |  | EC50 | 34 µM |
| O=C1N=C(N2CCCCC2)S/C1=C\c1ccc(F)cc1O | NG108-15 | intracellular chloride reduction, Clomeleon fluorescence |  | 5 h |  | EC50 | 2.99 µM |
| Cc1ncc([N+](=O)[O-])n1CCO | Escherichia coli expressing NfsB_Ec nitroreductase | growth inhibition, substrate, OD600 |  | 4 h |  | EC50 | 341 µM |
| O=C(O)CCc1nccs1 | Protein deacetylase HDAC6, ZnF-UBD domain (HDAC6, Homo sapiens, UniProt Q9UBN7) |  |  |  |  | Kd | > 1000 µM |
